{"data": "Measurements gathered from unrelated publications", "note": "Values joined by “and” are separate records of one study, mostly repeats; a detail may differ. Numbers after ± are the reported error.", "UniProt P41594, sequence (whole entry, looked up)": "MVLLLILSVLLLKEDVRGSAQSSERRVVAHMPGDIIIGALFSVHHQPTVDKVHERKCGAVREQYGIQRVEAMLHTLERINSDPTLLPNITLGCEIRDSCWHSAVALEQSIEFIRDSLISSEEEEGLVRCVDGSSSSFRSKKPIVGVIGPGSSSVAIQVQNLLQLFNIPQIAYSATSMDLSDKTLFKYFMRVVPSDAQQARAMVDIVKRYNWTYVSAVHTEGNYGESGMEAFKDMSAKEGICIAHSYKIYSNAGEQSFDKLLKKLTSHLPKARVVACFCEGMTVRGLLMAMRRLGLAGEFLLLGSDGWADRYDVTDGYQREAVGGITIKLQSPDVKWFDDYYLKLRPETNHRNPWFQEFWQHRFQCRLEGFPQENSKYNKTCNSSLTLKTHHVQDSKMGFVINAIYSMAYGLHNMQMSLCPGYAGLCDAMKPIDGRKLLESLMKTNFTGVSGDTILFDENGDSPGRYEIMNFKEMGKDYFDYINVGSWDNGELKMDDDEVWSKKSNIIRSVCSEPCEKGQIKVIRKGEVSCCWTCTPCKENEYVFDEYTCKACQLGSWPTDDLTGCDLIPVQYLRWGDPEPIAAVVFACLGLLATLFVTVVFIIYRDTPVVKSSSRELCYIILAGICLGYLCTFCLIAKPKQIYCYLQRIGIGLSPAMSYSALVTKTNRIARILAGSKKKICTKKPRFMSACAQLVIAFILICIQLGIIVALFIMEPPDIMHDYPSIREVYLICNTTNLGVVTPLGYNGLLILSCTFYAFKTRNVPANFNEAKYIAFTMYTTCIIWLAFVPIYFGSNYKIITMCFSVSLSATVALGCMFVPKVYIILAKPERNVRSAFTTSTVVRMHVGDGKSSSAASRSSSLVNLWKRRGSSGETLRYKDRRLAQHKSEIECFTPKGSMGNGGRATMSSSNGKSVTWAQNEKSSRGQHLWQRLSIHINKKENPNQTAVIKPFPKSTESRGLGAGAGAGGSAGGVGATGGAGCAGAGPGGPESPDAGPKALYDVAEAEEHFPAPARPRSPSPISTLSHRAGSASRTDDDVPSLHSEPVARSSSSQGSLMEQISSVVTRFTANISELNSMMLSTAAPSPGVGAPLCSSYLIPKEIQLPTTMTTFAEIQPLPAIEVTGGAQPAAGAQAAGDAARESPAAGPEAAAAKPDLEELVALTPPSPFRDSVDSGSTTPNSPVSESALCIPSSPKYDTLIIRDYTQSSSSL", "UniProt Q8IVT5, sequence (whole entry, looked up)": "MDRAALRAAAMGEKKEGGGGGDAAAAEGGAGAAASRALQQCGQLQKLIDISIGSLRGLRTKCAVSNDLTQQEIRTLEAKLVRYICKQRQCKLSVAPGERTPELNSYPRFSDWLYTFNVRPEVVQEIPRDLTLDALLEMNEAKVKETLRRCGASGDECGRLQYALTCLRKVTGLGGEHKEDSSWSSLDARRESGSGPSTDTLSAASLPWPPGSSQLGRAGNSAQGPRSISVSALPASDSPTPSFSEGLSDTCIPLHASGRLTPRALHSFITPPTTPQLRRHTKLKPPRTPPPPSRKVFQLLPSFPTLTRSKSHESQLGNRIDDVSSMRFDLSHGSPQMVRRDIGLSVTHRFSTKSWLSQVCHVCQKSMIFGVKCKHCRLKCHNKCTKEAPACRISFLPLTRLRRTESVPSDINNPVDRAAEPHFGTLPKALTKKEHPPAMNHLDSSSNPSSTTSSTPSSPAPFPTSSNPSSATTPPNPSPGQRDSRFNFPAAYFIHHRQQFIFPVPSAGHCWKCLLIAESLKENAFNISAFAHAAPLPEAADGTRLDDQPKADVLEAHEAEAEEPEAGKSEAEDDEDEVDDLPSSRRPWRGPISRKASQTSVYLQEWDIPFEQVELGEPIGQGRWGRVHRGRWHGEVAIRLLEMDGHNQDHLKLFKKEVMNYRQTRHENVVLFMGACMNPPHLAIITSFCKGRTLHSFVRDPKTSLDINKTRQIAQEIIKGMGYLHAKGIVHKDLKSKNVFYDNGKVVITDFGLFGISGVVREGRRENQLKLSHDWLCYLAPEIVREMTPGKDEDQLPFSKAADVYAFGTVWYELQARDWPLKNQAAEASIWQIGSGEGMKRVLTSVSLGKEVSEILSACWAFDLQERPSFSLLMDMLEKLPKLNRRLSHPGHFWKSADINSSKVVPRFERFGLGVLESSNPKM", "UniProt Q14680, sequence (whole entry, looked up)": "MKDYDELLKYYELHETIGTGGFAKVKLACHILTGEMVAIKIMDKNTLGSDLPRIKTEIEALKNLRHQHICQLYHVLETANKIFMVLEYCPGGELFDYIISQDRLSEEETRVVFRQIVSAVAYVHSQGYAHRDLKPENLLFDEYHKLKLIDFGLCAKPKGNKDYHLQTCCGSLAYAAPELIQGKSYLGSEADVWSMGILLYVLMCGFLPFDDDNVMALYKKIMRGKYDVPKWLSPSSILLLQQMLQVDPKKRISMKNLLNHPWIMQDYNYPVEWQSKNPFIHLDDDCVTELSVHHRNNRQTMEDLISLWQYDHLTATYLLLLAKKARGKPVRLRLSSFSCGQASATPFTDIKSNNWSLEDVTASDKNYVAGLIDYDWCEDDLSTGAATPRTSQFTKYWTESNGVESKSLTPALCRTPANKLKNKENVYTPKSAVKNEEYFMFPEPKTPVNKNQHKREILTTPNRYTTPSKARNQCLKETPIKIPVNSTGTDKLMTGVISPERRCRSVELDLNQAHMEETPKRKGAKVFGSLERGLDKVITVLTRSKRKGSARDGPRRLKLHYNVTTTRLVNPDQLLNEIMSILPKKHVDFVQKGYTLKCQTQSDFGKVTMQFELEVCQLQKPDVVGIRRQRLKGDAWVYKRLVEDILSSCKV"}
{"SMILES": "COc1ccc(-c2cc(C(F)(F)F)c3c(N)c(C(=O)N4CC5(CCOC5)C4)sc3n2)cc1", "tested on": "Mycobacterium tuberculosis", "assay": "growth inhibition", "test system": "H37Rv LepB under-expressing", "endpoint": "IC50", "result": "12 ± 10 µM"}
{"SMILES": "COc1cc(CCC[P+](c2ccccc2)(c2ccccc2)c2ccccc2)c(OC)c2c1OCO2.[I-]", "tested on": "SF-268", "assay": "SRB", "endpoint": "LC50", "result": "-4.29 log M"}
{"SMILES": "C[C@@H](O)[C@@H](CO)NC(=O)[C@@H](CCCNC(=N)N)NC(=O)[C@@H]1CCCN1C(=O)[C@@H]1CSSC[C@H](NC(=O)[C@H](Cc2ccccc2)NC(=O)CN2CCN(CC(=O)O)CCN(CC(=O)O)CCN(CC(=O)O)CC2)C(=O)N[C@@H](Cc2ccc(O)cc2)C(=O)N[C@@H](Cc2ccccc2)C(=O)N[C@@H](CCC(N)=O)C(=O)N[C@@H](CC(N)=O)C(=O)N1 [gallium-68 labelled]", "test system": "Wistar rat, healthy, sublingual gland", "setting": "intravenous, 8 MBq, 30 min", "endpoint": "tissue uptake", "result": "0.56 %ID/g"}
{"SMILES": "COc1ccc(-c2cc(C(F)(F)F)c3c(N)c(C(=O)Nc4ccccc4)sc3n2)cc1", "tested on": "Mycobacterium tuberculosis", "assay": "growth inhibition", "test system": "H37Rv LepB under-expressing", "endpoint": "IC50", "result": "> 100 µM"}
{"SMILES": "CC(C)C(=O)OCc1cc2[nH]c(=S)n(Cc3cccnc3)c(=O)c2cc1Cl", "tested on": "Mycobacterium tuberculosis", "test system": "PptT conditional knockdown", "endpoint": "MIC90", "result": "0.46 µM"}
{"SMILES": "O=C(NC1CC1)c1cc(-c2ccoc2)ccc1OCCc1cccc(F)c1", "tested on": "Mycobacterium tuberculosis", "test system": "H37Rv-LP", "scale": "baseline: HepG2 CC50 over Mtb IC90", "endpoint": "selectivity index", "result": 15}
{"SMILES": "Nc1c(C(=O)NCc2ccccc2)sc2ncccc12", "tested on": "Mycobacterium tuberculosis", "assay": "growth inhibition", "test system": "H37Rv LepB under-expressing", "endpoint": "IC50", "result": "> 100 µM"}
{"SMILES": "CC[C@H](C)[C@H](NC(=O)[C@H](Cc1ccccc1)NC(=O)[C@H](CCC(=O)O)NC(=O)[C@H](CCCNC(=N)N)NC(=O)[C@H](C)NC(=O)[C@H](C)NC(=O)[C@H](CCC(N)=O)NC(=O)[C@H](CCC(=O)O)NC(=O)[C@H](CCC(=O)O)NC(=O)[C@H](CC(C)C)NC(=O)[C@H](Cc1ccc(O)cc1)NC(=O)[C@H](CO)NC(=O)[C@H](CO)NC(=O)[C@@H](NC(=O)[C@H](CC(=O)O)NC(=O)[C@H](CO)NC(=O)[C@@H](NC(=O)[C@H](Cc1ccccc1)NC(=O)[C@@H](NC(=O)CNC(=O)[C@H](CCC(=O)O)NC(=O)[C@H](C)NC(=O)CCc1c[nH]cn1)[C@@H](C)O)[C@@H](C)O)C(C)C)C(=O)N[C@@H](C)C(=O)N[C@@H](Cc1c[nH]c2ccccc12)C(=O)N[C@@H](CC(C)C)C(=O)N[C@H](C(=O)N[C@@H](CCCNC(=N)N)C(=O)NCC(=O)N[C@@H](CCCNC(=N)N)C(=O)N[C@@H](CCCCNC(=O)COCCOCCNC(=O)COCCOCCNC(=O)CC[C@H](NC(=O)CCCCCCCCCCCCCCCCC(=O)O)C(=O)O)C(=O)NCC(=O)NCC(=O)N[C@@H](CO)C(=O)N[C@@H](CCCCNc1c(NCCCCCN(O)C(=O)CCC(=O)NCCCCCN(O)C(=O)CCC(=O)NCCCCCN(O)C(C)=O)c(=O)c1=O)C(=O)O)C(C)C [zirconium-89 labelled]", "test system": "rat, duodenum content", "setting": "intravenous, 3 nmol/kg, 4 h", "endpoint": "tissue uptake", "result": "0.13 %ID/g"}
{"SMILES": "CO[C@H]1C[C@@H]2CC[C@@H](C)[C@@](O)(O2)C(=O)C(=O)N2CCCC[C@H]2C(=O)O[C@H]([C@H](C)C[C@@H]2CC[C@@H](OC(=O)NCCOCCOCCOCCOCCOCCOCCOCCOCCC(=O)N3CCc4cc(Cn5nc(-c6ccc7oc(N)nc7c6)c6c(N)ncnc65)ccc4C3)[C@H](OC)C2)C[C@@H](O)[C@H](C)/C=C(\\C)[C@@H](O)[C@@H](OC)C(=O)[C@H](C)C[C@H](C)/C=C/C=C/C=C/1C", "test system": "patients with advanced solid tumours", "setting": "intravenous, 12 mg weekly, grade 3 or higher", "endpoint": "constipation incidence", "result": "0%"}
{"SMILES": "COc1ccc(-c2cc(C(F)(F)F)c3c(N)c(C(=O)Nc4cc(C)cc(C)c4)sc3n2)cc1", "tested on": "Mycobacterium tuberculosis", "test system": "H37Rv wild type", "scale": "baseline: HepG2 IC50 over M. tuberculosis IC90", "endpoint": "selectivity index", "result": "< 1"}
{"SMILES": "O=C(O)C[C@H](NC(=O)[C@H](CC(=O)O)NC(=O)[C@H](CC(=O)O)NC(=O)[C@H](CC(=O)O)NC(=O)[C@H](CC(=O)O)NC(=O)[C@H](CC(=O)O)NC(=O)[C@H](CC(=O)O)NC(=O)[C@H](CC(=O)O)NC(=O)[C@H](CC(=O)O)NC(=O)[C@H](CC(=O)O)NC(=O)[C@H](CC(=O)O)NC(=O)[C@H](CCCCNC(=O)c1ccc(C(=O)NCCOCCOB2BBBBBB3BBBB3B2)cc1)NC(=O)CN1CCN(CC(=O)O)CCN(CC(=O)O)CCN(CC(=O)O)CC1)C(=O)O [gallium-67 labelled]", "assay": "gamma counting", "test system": "mouse, ddY, male, 6 weeks old, stomach", "setting": "intravenous, 37 kBq, 3 h", "endpoint": "tissue uptake", "result": "0.07 %ID"}
{"SMILES": "Cc1ccc(Cn2c(=S)[nH]c3ccc(Cl)cc3c2=O)cn1", "tested on": "Mycobacterium tuberculosis", "test system": "PptT conditional knockdown", "endpoint": "MIC90", "result": "> 25 µM"}
{"SMILES": "COc1ccc(-c2ccc(OCCc3cccc(F)c3)c(C(N)=O)c2)cc1", "tested on": "Mycobacterium tuberculosis", "assay": "growth", "test system": "H37Rv-LP", "setting": "120 h", "endpoint": "IC90", "result": "> 100 µM"}
{"SMILES": "COc1cc(Nc2ncc(F)c(Nc3ccc4c(n3)NC(=O)C(C)(C)O4)n2)cc(OC)c1OC", "tested on": "GRM5 (Homo sapiens, UniProt P41594)", "assay": "binding", "endpoint": "IC50", "result": "> 10 µM"}
{"SMILES": "CC(O)c1ccc(OCCc2cccc(F)c2)c(C(N)=O)c1 (stereo not shown)", "tested on": "Mycobacterium tuberculosis", "test system": "H37Rv-LP", "scale": "baseline: HepG2 CC50 over Mtb IC90", "endpoint": "selectivity index", "result": "> 16"}
{"SMILES": "O=C(O)c1cc2[nH]c(=S)n(Cc3cccnc3)c(=O)c2cc1Cl", "tested on": "Mycobacterium tuberculosis", "test system": "PptT conditional knockdown", "endpoint": "MIC90", "result": "> 100 µM"}
{"SMILES": "Cc1ccc(OCCc2ccc(Br)cc2)c(C(N)=O)c1", "tested on": "Mycobacterium tuberculosis", "test system": "H37Rv-LP", "scale": "baseline: HepG2 CC50 over Mtb IC90", "endpoint": "selectivity index", "result": 60}
{"SMILES": "COc1c(CCC[P+](c2ccccc2)(c2ccccc2)c2ccccc2)cc2c(c1OC)OCO2.[I-]", "tested on": "SF-295", "assay": "SRB", "endpoint": "LC50", "result": "-4.29 log M"}
{"SMILES": "COc1ccc(N2C(=O)N(c3c(C)cccc3Cl)Cc3cnc(Nc4ccc(C5CCN(C)CC5)cc4OC)nc32)nc1", "tested on": "MELK (Homo sapiens, UniProt Q14680)", "assay": "kinase activity", "setting": "0.5 µM", "endpoint": "inhibition", "result": "39%"}
{"SMILES": "COc1cc2c(Oc3ccc4[nH]c(C)cc4c3F)ccnc2cc1OCC1(N)CC1", "test system": "paediatric recurrent refractory sarcoma", "setting": "10 mg", "endpoint": "grade 3 TBIL elevation", "result": "0%"}
{"SMILES": "NC(=O)c1cc(F)ccc1OCCc1cccc(F)c1", "tested on": "Mycobacterium tuberculosis", "test system": "H37Rv-LP", "scale": "baseline: HepG2 CC50 over Mtb IC90", "endpoint": "selectivity index", "result": "> 1.5"}
{"SMILES": "OC(Cn1cncn1)(Cn1cncn1)c1ccc(F)cc1F", "tested on": "Saccharomyces cerevisiae", "assay": "cell growth", "test system": "Pdr5 deleted, empty vector", "setting": "2^-1.152 µg/mL", "endpoint": "OD600", "result": "0.063 and 0.074 and 0.064"}
{"SMILES": "COc1ccc(-c2cc(C)c3c(N)c(C(=O)Nc4cccc(C)c4C)sc3n2)cc1", "tested on": "Mycobacterium tuberculosis", "assay": "growth inhibition", "test system": "H37Rv LepB under-expressing", "endpoint": "IC50", "result": "> 100 µM"}
{"SMILES": "COCc1cc2[nH]c(=S)n(Cc3cccnc3)c(=O)c2cc1Cl", "tested on": "Mycobacterium tuberculosis", "test system": "PptT conditional knockdown", "endpoint": "MIC90", "result": "0.82 µM"}
{"SMILES": "CC(=O)c1ccc(OCCc2cccc(F)c2)c(C(N)=O)c1", "tested on": "Mycobacterium tuberculosis", "assay": "growth", "test system": "H37Rv-LP", "setting": "120 h", "endpoint": "IC90", "result": "3.6 ± 0.38 µM"}
{"SMILES": "O=c1c2cc(C(F)(F)F)ccc2[nH]c(=S)n1Cc1cccnc1", "tested on": "Mycobacterium tuberculosis", "test system": "PptT conditional knockdown", "endpoint": "MIC90", "result": "26.3 µM"}
{"SMILES": "CN1CC[C@@H](c2c(O)cc(O)c3c(=O)cc(-c4ccc(C(F)(F)F)cc4Cl)oc23)[C@@H]1CO", "assay": "measured: Anorexia", "test system": "B-cell malignancies", "setting": "oral, 150 mg, intermittent dosing", "endpoint": "patients with adverse event", "result": "33.3%"}
{"SMILES": "Cc1cccc(NC(=O)c2sc3nc(-c4ccco4)cc(C(F)(F)F)c3c2N)c1C", "tested on": "Mycobacterium tuberculosis", "test system": "H37Rv wild type", "setting": "120 h", "endpoint": "IC90", "result": "inactive"}
{"SMILES": "O=c1c2cccc(Cl)c2[nH]c(=S)n1Cc1cccnc1", "tested on": "Mycobacterium tuberculosis", "test system": "PptT conditional knockdown", "endpoint": "MIC90", "result": "73.2 µM"}
{"SMILES": "O=C(c1cc2ccc(-c3ccccc3)nc2s1)N1CCCC1", "tested on": "Mycobacterium tuberculosis", "assay": "growth inhibition", "test system": "H37Rv LepB under-expressing", "endpoint": "IC50", "result": "> 100 µM"}
{"SMILES": "O=c1c2cc(Cl)ccc2oc(=S)n1Cc1cccnc1", "tested on": "Mycobacterium tuberculosis", "test system": "PptT conditional knockdown", "endpoint": "MIC90", "result": "27.2 µM"}
{"SMILES": "C[C@H]1CN(c2n[nH]c3nc(N[C@H]4CC[C@H](NS(=O)(=O)CCC(F)(F)F)CC4)ncc23)CCO1", "tested on": "KSR1 (Homo sapiens, UniProt Q8IVT5)", "assay": "inhibitor, Kinobeads competition profiling", "setting": "20 µM", "scale": "baseline: vehicle", "endpoint": "relative abundance", "result": 1.24}
{"SMILES": "CCC(C)(O)c1ccc(OCCc2cccc(F)c2)c(C(N)=O)c1 (stereo not shown)", "tested on": "Mycobacterium tuberculosis", "assay": "growth", "test system": "H37Rv-LP", "setting": "120 h", "endpoint": "IC90", "result": "24 ± 1.7 µM"}
{"SMILES": "O=C(OCc1ccccc1)OCc1cc2[nH]c(=S)n(Cc3cccnc3)c(=O)c2cc1Cl", "tested on": "Mycobacterium tuberculosis", "test system": "PptT conditional knockdown", "endpoint": "MIC90", "result": "1.94 µM"}
{"SMILES": "COc1ccc(-c2cc(C(F)(F)F)c3c(N)c(C(=O)NC45CC6CC(CC(O)(C6)C4)C5)sc3n2)cc1", "tested on": "Mycobacterium tuberculosis", "assay": "growth inhibition", "test system": "H37Rv LepB under-expressing", "endpoint": "IC50", "result": "> 100 µM"}
{"SMILES": "C=C(C)c1ccc(OCCc2cccc(F)c2)c(C(N)=O)c1", "tested on": "Mycobacterium tuberculosis", "test system": "H37Rv-LP", "scale": "baseline: HepG2 CC50 over Mtb IC90", "endpoint": "selectivity index", "result": 71}
{"SMILES": "CC[C@H](C)[C@@H]1NC(=O)[C@@H]2CCCN2C(=O)[C@H](CC(C)C)NC(=O)[C@H](CC(C)C)NC(=O)CNC(=O)[C@@H](NC(=O)[C@@H](NC(=O)[C@H](CC(=O)O)NC(=O)CNC(=O)[C@@H](NC(=O)[C@H](C)NC(=O)CNC(=O)[C@H](CCCCN)NC(=O)[C@H](CC(C)C)NC(=O)[C@H](CC(C)C)NC(=O)[C@H](CCCCN)NC(=O)CNC(=O)[C@@H](NC(=O)[C@@H](N)CC(C)C)C(C)C)C(C)C)C(C)C)CSSC[C@@H](C(=O)O)NC1=O", "assay": "RNA-seq, measured: Cebpe mRNA", "test system": "mouse traumatic brain injury, frontal cortex and hippocampus", "setting": "dose not given", "scale": "baseline: TBI plus compound vs TBI", "endpoint": "log2 fold change", "result": -4.7}
{"note": "A few entries again:"}
{"SMILES": "O=C(O)c1cc2[nH]c(=S)n(Cc3cccnc3)c(=O)c2cc1Cl", "tested on": "Mycobacterium tuberculosis", "test system": "PptT conditional knockdown", "endpoint": "MIC90", "result": "> 100 µM"}
{"SMILES": "COCc1cc2[nH]c(=S)n(Cc3cccnc3)c(=O)c2cc1Cl", "tested on": "Mycobacterium tuberculosis", "test system": "PptT conditional knockdown", "endpoint": "MIC90", "result": "0.82 µM"}
{"SMILES": "Nc1c(C(=O)NCc2ccccc2)sc2ncccc12", "tested on": "Mycobacterium tuberculosis", "assay": "growth inhibition", "test system": "H37Rv LepB under-expressing", "endpoint": "IC50", "result": "> 100 µM"}
